Assay results from different studies.
Protocols differ between the studies behind these lines. Several values in a cell are separate wells, animals, samples, runs or records. Numbers after ± are the reported error.
Chain of UniProt P35579 (whole entry, looked up): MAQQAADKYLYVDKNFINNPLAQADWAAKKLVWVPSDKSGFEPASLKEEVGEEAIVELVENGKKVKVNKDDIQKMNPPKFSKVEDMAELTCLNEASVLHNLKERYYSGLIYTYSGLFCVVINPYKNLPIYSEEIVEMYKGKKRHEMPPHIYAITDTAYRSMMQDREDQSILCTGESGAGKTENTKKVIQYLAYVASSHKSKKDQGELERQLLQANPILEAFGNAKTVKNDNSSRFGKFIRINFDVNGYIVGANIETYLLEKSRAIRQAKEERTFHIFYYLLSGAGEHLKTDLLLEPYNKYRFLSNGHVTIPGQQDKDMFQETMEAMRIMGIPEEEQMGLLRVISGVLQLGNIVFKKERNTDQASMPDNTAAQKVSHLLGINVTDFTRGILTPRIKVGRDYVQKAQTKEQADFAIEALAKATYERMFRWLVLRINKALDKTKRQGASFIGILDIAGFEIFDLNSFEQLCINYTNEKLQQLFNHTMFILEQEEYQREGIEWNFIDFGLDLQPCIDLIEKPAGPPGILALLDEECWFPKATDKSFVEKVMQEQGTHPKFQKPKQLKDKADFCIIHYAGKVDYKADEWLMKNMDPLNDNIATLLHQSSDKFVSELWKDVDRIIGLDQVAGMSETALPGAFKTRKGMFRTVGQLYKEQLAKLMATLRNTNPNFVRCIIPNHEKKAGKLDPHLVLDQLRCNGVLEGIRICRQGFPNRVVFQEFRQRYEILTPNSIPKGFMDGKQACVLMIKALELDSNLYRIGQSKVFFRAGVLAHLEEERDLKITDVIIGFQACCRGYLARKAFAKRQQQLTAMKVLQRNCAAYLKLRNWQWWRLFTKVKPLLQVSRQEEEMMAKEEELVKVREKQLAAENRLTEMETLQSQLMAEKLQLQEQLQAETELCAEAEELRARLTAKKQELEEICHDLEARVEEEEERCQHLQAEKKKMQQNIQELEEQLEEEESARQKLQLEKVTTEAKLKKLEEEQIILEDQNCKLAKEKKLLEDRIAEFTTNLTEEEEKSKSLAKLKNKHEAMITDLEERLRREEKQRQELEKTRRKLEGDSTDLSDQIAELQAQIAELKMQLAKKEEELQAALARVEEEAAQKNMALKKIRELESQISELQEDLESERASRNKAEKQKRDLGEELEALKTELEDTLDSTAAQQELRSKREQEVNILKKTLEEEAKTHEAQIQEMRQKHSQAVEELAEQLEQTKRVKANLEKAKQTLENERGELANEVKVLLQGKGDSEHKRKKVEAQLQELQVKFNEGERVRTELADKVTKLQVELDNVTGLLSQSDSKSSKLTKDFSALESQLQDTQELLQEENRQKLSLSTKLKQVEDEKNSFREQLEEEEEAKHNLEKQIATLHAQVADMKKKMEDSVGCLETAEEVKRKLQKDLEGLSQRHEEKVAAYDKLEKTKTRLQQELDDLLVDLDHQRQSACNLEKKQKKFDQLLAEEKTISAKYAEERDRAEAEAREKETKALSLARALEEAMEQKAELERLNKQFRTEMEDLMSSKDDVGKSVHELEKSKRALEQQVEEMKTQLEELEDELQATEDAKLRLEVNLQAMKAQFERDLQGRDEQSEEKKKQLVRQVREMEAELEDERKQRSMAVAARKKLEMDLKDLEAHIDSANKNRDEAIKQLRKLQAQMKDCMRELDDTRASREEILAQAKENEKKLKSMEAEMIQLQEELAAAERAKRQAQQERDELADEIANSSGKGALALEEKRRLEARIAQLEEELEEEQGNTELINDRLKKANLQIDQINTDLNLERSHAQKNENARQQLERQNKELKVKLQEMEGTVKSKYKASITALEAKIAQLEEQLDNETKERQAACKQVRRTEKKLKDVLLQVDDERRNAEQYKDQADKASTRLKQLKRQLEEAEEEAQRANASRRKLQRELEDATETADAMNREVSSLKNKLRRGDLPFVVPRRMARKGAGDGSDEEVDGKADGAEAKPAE

Compound | target or system | assay | test system | setting | how to read | measurement | result
C[C@@H]1C[C@H]2[C@@H]3C[C@H](F)C4=CC(=O)C=C[C@@]4(C)[C@@]3(F)[C@@H](O)C[C@]2(C)[C@@]1(OC(=O)C1C(C)(C)C1(C)C)C(=O)OCC#N | HEK293T ATF4-FLuc reporter | ATF4 reporter gene, activator, luciferase reporter | – | – | – | EC50 | 5670 nM
C[C@]12CC[C@H](O)C[C@H]1CC[C@@H]1[C@@H]2CC[C@]2(C)[C@@H](c3ccc(=O)oc3)CC[C@]12O | T47D | luciferase | – | 100 nM, reporter without ERE, unit not given | baseline: untreated | control reporter activity | 0.194 and 0.209 and 0.126
COc1c(CCC[P+](c2ccccc2)(c2ccccc2)c2ccccc2)cc2c(c1OC)OCO2.[I-] | TK-10 | SRB | – | – | – | TGI | -4.46 log M
CC(C)N1CCC(NC2CCN(c3cccc(-c4cc5cc(F)ccc5[nH]4)c3)CC2)CC1 | OVCAR-4 | – | – | – | – | GI50 | 1890 nM
Cc1cnc2ccc3c(nc(N)n3C)c2n1 | BALB/c 3T3 | colony formation | – | 0.5 µM | – | plating efficiency | 48%
OCCn1cc(-c2cnc3nnn(Cc4ccc5ncccc5c4)c3n2)cn1 | human coronavirus OC43 | virus-induced cell killing | MRC-5 | maximum over 10 doses | – | maximum inhibition | 0%
Oc1cc(Cl)ccc1Oc1ccc(Cl)cc1Cl | HepG2 | item: NF-κB nuclear translocation | – | 24 h, distribution mode 2 | – | point of departure | 17 µM
Oc1ccc(C2(c3ccc(O)cc3)c3ccccc3-c3ccccc32)cc1 | HepG2 spheroids | Hoechst flow cytometry | – | 10 µM, 24 h | – | S phase cells | 7.81 ± 1.78%
C[C@H]1CN(c2n[nH]c3nc(N[C@H]4CC[C@H](NS(=O)(=O)CCC(F)(F)F)CC4)ncc23)CCO1 | Myosin-9 (MYH9, Homo sapiens, UniProt P35579) | inhibitor, Kinobeads competition profiling | – | 20 µM | baseline: vehicle | relative abundance | 1.21
C[C@]12CC[C@H]3[C@@H](CC[C@]4(O)C[C@@H](O)CC[C@]34C=O)[C@@]1(O)CC[C@@H]2C1=CC(=O)OC1 | human iPSC cardiomyocytes | plate-normalised | – | concentration not given, hit retest | baseline: vehicle controls, SDs below control | MyBP-C level change | 19.2 SD
N[C@@H](C[18F])C(=O)O | U-87 MG | – | – | concentration not given, added: L-alanine 5 mM | – | inhibition of cellular uptake | 78%
FC(F)c1nc2ccccc2n1-c1nc(N2CCOCC2)nc(N2CCOCC2)n1 | human coronavirus OC43 | virus-induced cell killing | MRC-5 | maximum over 10 doses | – | maximum inhibition | 0%
Cn1cncc1C1=CN(c2ncnc3[nH]cnc23)CCS1 | OVCAR-4 | – | – | ovarian cancer | – | CC50 | > 200000 nM
O=c1cc(-c2ccc(O)cc2)oc2cc(O)cc(O)c12 | SH-SY5Y Aβ-GFP cells | Aβ aggregation inhibition, GFP folding reporter | – | – | – | EC50 | 5300 nM
COc1cc(C[C@@H](C)[C@@H](C)Cc2ccc(O)c(OC)c2)ccc1O | THP-1, PMA-differentiated | – | – | 10 µM, 24 h, added: LPS 1 µg/mL | baseline: LPS model | IL-6 mRNA level | decreased
C/C=C(/C)C(=O)O[C@H]1C(C)=C2[C@H]([C@@H]1OC(=O)CCCCCCC)[C@@](C)(OC(C)=O)C[C@H](OC(=O)CCC)[C@@]1(O)[C@H]2OC(=O)[C@@]1(C)O | HEK293T | RNA-seq, item: HSPH1 mRNA | – | 10 µM, 6 h | baseline: vehicle | log2 fold change | -0.38
COc1ccc2c(c1)[nH]c1c(C)nccc12 | DU-145 | bisulfite pyrosequencing, item: RASSF1A promoter CpG site 7 | – | concentration not given | baseline: vehicle | methylation reduction | 1.39%

Compound | target or system | assay | test system | setting | how to read | measurement | result
Nc1ncnc2c1ncn2[C@@H]1O[C@@H]2COP(=O)(O)O[C@H]3[C@@H](O)[C@H](n4cnc5c(=O)[nH]cnc54)O[C@@H]3COP(=O)(O)O[C@H]2[C@H]1O | HFF-1 | RNA sequencing Reactome analysis, item: Reactome R-HSA-1236977 endosomal/vacuolar pathway | – | added: West Nile virus infection | baseline: West Nile virus infected cells, upregulated pathway | pathway fold enrichment | 23
CC(C)[C@H](N)C(=O)N1CCC[C@H]1B(O)O | Ker-CT keratinocytes, CASP1 knockout | inducer, ELISA | – | concentration not given | – | IL-1β release | 7.41 pg/mL
O=C1N(Cc2ccccc2Cl)c2ccccc2C12NN=C(c1ccccc1)S2 (stereo not drawn) | MDA-MB-468 | gene expression array, item: GNG10 mRNA | – | 10 µM, 12 h | baseline: untreated, down | fold change | 1.61
CCN(CC)c1ccc(C=NNC(=O)CSc2nc3ccccc3c(=O)n2Cc2ccc(S(N)(=O)=O)cc2)c(O)c1 | COLO 205 | NCI five-dose screen | – | – | – | CC50 | > 100000 nM
O=C(N/N=C/c1ccc([N+](=O)[O-])o1)c1cc([N+](=O)[O-])cc([N+](=O)[O-])c1O | THP-1 | pyroptotic LDH release | – | 2 µM, 40 min, added: LPS then nigericin | – | inhibition | 8.67%
COc1c(C)c2c(c(O)c1C/C=C(\C)CCC(=O)O)C(=O)OC2 | EFO-21 | cell proliferation | – | – | – | IC50 | 1170 nM
CN1C(=O)CCS(=O)(=O)C1c1ccc(Cl)cc1 (stereo not drawn) | THP-1 | pyroptotic LDH release | – | 2 µM, 40 min, added: LPS then nigericin | – | inhibition | -1.58%
Oc1ccc(C(c2ccc(O)cc2)(C(F)(F)F)C(F)(F)F)cc1 | HepG2 spheroids | Hoechst flow cytometry | – | 40 µM, 24 h | – | G1 phase cells | 69.5 ± 3.11%
CN1CCN(C2(CNC3CCN(c4cccc(-c5cc6cc(F)ccc6[nH]5)c4)CC3)CCC2)CC1 | TK-10 | – | – | – | – | GI50 | 1710 nM
CC(C)(C)c1cc(C=C(C#N)C#N)cc(Br)c1O | hCMEC/D3 | outcome: decreased, Western blot, item: insulin receptor β | – | 100 µM, added: insulin 100 nM | – | membrane expression | decreased
Cc1cc(C(C)(C)c2ccc(O)c(C)c2)ccc1O | HepG2 spheroids | Hoechst flow cytometry | – | 1 µM, 24 h | – | S phase cells | 8.97 ± 1.36%
Nc1nc(N)nc(NC2CC2)n1 | THP-1 | pyroptotic LDH release | – | 2 µM, 40 min, added: LPS then nigericin | – | inhibition | -0.931%
CC(CCc1ccccc1)NC(C)C(O)c1ccc(O)cc1 (stereo not drawn) | MDA-MB-231 BAX/BAK siRNA knockdown | CellTiter-Glo | – | concentration not given | baseline: normalised luminescence | viability | 44.1% and 53.9%
Cn1nccc1Nc1nccc(-c2ccn([C@H](CO)c3ccc(Cl)c(F)c3)c(=O)c2)n1 | HCT116 | IncuCyte | – | concentration not given, 32 (unit not given) | – | PI-positive cells | 8.42 count and 6.5 count and 10.2 count
COc1cc(CCC[P+](c2ccccc2)(c2ccccc2)c2ccccc2)c(OC)c2c1OCO2.[I-] | KM12 | SRB | – | – | – | TGI | -5.18 log M
Nc1ncc(-c2nc(N3CCOCC3)nc(N3CCOCC3)n2)c(C(F)F)n1 | MIA PaCa-2 | cell growth | – | 72 h | – | GI50 | 555 nM

For quick reference, copied from above:
Compound | target or system | assay | test system | setting | how to read | measurement | result
Nc1ncnc2c1ncn2[C@@H]1O[C@@H]2COP(=O)(O)O[C@H]3[C@@H](O)[C@H](n4cnc5c(=O)[nH]cnc54)O[C@@H]3COP(=O)(O)O[C@H]2[C@H]1O | HFF-1 | RNA sequencing Reactome analysis, item: Reactome R-HSA-1236977 endosomal/vacuolar pathway | – | added: West Nile virus infection | baseline: West Nile virus infected cells, upregulated pathway | pathway fold enrichment | 23
Cc1cnc2ccc3c(nc(N)n3C)c2n1 | BALB/c 3T3 | colony formation | – | 0.5 µM | – | plating efficiency | 48%
CC(CCc1ccccc1)NC(C)C(O)c1ccc(O)cc1 (stereo not drawn) | MDA-MB-231 BAX/BAK siRNA knockdown | CellTiter-Glo | – | concentration not given | baseline: normalised luminescence | viability | 44.1% and 53.9%
C/C=C(/C)C(=O)O[C@H]1C(C)=C2[C@H]([C@@H]1OC(=O)CCCCCCC)[C@@](C)(OC(C)=O)C[C@H](OC(=O)CCC)[C@@]1(O)[C@H]2OC(=O)[C@@]1(C)O | HEK293T | RNA-seq, item: HSPH1 mRNA | – | 10 µM, 6 h | baseline: vehicle | log2 fold change | -0.38
